Results of several laboratories.
“And” joins repeats or separate records; there may be more than shown.
Target: Interleukin-1 receptor-associated kinase 4 (IRAK4, Homo sapiens, UniProt Q9NWZ3)

Structure (SMILES) | assay | conditions | scale | quantity | value
NC(=O)C[C@H]1CCc2sc3ncnc(O[C@H]4CC[C@H](N5CCOCC5)CC4)c3c21 | enzyme activity, inhibitor | 10 µM | – | inhibition | 99%
COc1cncc(-c2ccc3[nH]c4ncnc(N[C@H]5CC[C@H](N6CCOCC6)CC5)c4c3c2)c1 | enzyme activity, AlphaScreen | 1 µM, together with: ATP 25 µM | – | inhibition | 100%
CCN1CCN(Cc2ccc(C(=O)Nc3ccc(C)c(NCc4cnc5[nH]ccc5c4OC)c3)cc2C(F)(F)F)CC1 | binding, competition with immobilised ligand | 1 µM | – | remaining binding | 86%
C=CC(=O)N1Cc2nc(-c3cc(-c4cc(Cl)cnc4Cl)c(F)cc3F)n(-c3ccncn3)c2C1 | cell-free assay, inhibitor | 1 µM | – | inhibition | 1.7%
c1ccc2c(Nc3cc(C4CCC4)[nH]n3)nc(Nc3ccc4nc[nH]c4c3)nc2c1 | enzyme activity, inhibitor | 0.25 µM | – | remaining activity | 5%
C[C@H]1CN(C(=O)c2cn(-c3ccnc(N)n3)c3cc(C#CC4(O)CCCCC4)ccc23)CCN1 | enzyme activity, inhibitor, FRET | 1 µM | – | inhibition | -3%
CC(C)=CC1OC(C)(C)C2C=C3C(=O)C(Cl)=CC(O)C3C3C(O)C4OC4C(=O)C132 (centres unmarked) | cell-free assay, competition with immobilised ligand | 10 µM | – | remaining binding | 83%
Fc1cncc(-c2ccc3[nH]c4ncnc(N[C@H]5CC[C@H](N6CCOCC6)CC5)c4c3c2)c1 | enzyme activity, inhibitor, radiometric | 1 µM | – | inhibition | > 98%
CN1CCN(Cc2ccc(-c3ccc(CO[C@H]4CCC[C@@H]4NC(=O)c4cc(-c5cnn(C)c5)cnc4N)cc3)cc2)CC1 | enzyme activity, inhibitor | 0.1 µM | – | inhibition | -9%
O=C(Cc1ccc(OCc2ccccc2)cc1)NC1(C(=O)O)CCN(C(=O)c2ccc(-c3cccc(Cl)c3)cc2)CC1 | enzyme activity, inhibitor | 10 µM | – | activity vs control | 152%
CNC(=O)C1CCN(c2cc(C)c(F)cc2NC(=O)c2ccc(-c3cc(O)ccc3C)c(C)c2)CC1 | binding, competition with immobilised ligand | 1 µM | – | remaining binding | 79%
Cc1cccc(O[C@H]2CCC[C@@H](C(C)CNCc3ccncc3)C2)c1 (relative stereo) | kinase activity, kinome panel screening | 1 µM | – | inhibition | -3%
CNC(=O)C[C@H](Cc1ccc(C#N)cc1)NC(=O)c1cc(-c2ccc(CN[C@H](C)c3ccc(C)cc3)o2)ccc1Cl | enzyme activity, inhibitor | 1 µM | – | activity vs control | 97%
C=CC(=O)Nc1cccc(-c2cnc3[nH]cc(C(=O)NC(C)(C)C)c3n2)c1 | kinase activity | 0.1 µM | – | inhibition | -7% and 1%
COc1cc(Nc2nc(C)cc(-c3cnn4nc(OC)ccc34)n2)cc(C(F)(F)F)c1 | inhibitor | 1 µM | baseline: control | remaining activity | 87%
Cc1cnc2nc1Nc1cccc(c1)COC/C=C/COCc1cc(ccc1OCCN1CCOCC1)N2 | – | concentration not given | – | percent of control | 81%
Nc1ncc2c(n1)-c1c([nH]c3ccc(C4=CCOCC4)cc13)CCC2 | binding, competition with immobilised ligand | 1 µM | – | remaining binding | 100%
CNC1C[S+]2CC[S+]3CC[S+](C1)[Ru-4]321([N]=C=S)[n]2c3ccc(OC)cc3c3c4c(c5cc(F)c[n+]1c5c32)C(=O)NC4=O (centres unmarked) | KinomeScan | 0.1 µM | baseline: untreated | remaining binding | 85%
Cc1nc2c(F)cc(-c3nc(Nc4ccc(CNC(=O)CCCCCCC(=O)NO)cc4)ncc3F)cc2n1C(C)C | enzyme activity, inhibitor | 1 µM | – | inhibition | 78%
COc1ccc(NC(=O)Nc2ccc3c(c2)C(=O)N(C(C)CO)CC(C)C(CN(C)Cc2ccc4c(c2)OCO4)O3)cc1 (centres unmarked) | kinase activity, KinaseProfiler | 0.03 µM, species human | baseline: control | remaining activity | 106%

Excerpt of the above:
Structure (SMILES) | assay | conditions | scale | quantity | value
c1ccc2c(Nc3cc(C4CCC4)[nH]n3)nc(Nc3ccc4nc[nH]c4c3)nc2c1 | enzyme activity, inhibitor | 0.25 µM | – | remaining activity | 5%
Cc1nc2c(F)cc(-c3nc(Nc4ccc(CNC(=O)CCCCCCC(=O)NO)cc4)ncc3F)cc2n1C(C)C | enzyme activity, inhibitor | 1 µM | – | inhibition | 78%
Fc1cncc(-c2ccc3[nH]c4ncnc(N[C@H]5CC[C@H](N6CCOCC6)CC5)c4c3c2)c1 | enzyme activity, inhibitor, radiometric | 1 µM | – | inhibition | > 98%
